Measured values from different studies.
Each line is one published result; not all experiments were run side by side. ± gives the spread as reported. ≈ marks a conversion by molar mass, not a printed value.

Structure (SMILES) = CCCSc1ccc2nc(NC(=O)OC)[nH]c2c1; test system = mouse, blood; setting = oral, 50 mg/kg; endpoint = white blood cell count; value = 7.16 10⁹/L
Structure (SMILES) = COc1ccnc(C(=O)N[C@H]2COC(=O)[C@H](Cc3ccccc3)[C@@H](OC(=O)C(C)C)[C@H](C)OC2=O)c1OCOC(=O)C(C)C; test system = pond water; setting = 0.1 mg/L, 21.0 °C, whole system, aerobic mineralisation; endpoint = DT50; value = 0.11 days
Structure (SMILES) = C[C@@H]1OC(=O)NN=C1c1ccc(-c2ccc(F)cc2)c(C(F)(F)F)c1; test = phase I trial, item: Ascites worst grade 2; test system = human patients; setting = dose not given, all dose groups; endpoint = patients with adverse event; value = 20%
Structure (SMILES) = C[C@@H](NC(=O)N1C(=O)[C@H](Cc2ccnc(N)c2)[C@H]1C(=O)O)C1CCCCC1; test system = healthy adult Chinese volunteers; setting = continuous intravenous infusion, 1.5 mg/kg/h, 5-day infusion, CTCAE 5.0 grading; endpoint = incidence of administration site extravasation; value = 12.5%
Structure (SMILES) = CCN1[C@@H](C(=O)NC23CCC(C(=O)O)(CC2)CC3)[C@H](c2cccc(Cl)c2F)[C@]2(C(=O)Nc3cc(Cl)ccc32)C12CCCCC2; test system = patients with advanced solid tumours; setting = oral, 150 mg; endpoint = AST elevation incidence; value = 12.5%
Structure (SMILES) = O=C(Nc1ccccc1)C1CCN(C(=O)Oc2cccnc2)CC1; test = item: reproductive and breast disorders; test system = healthy women; setting = oral, 20 mg, 7 days; endpoint = subjects with adverse event; value = 14.3%
Structure (SMILES) = C[C@]1(CO)Cc2ncn(-c3ccc(C#N)c(Cl)c3)c2C(=O)O1; test = investigator-assessed; test system = human, Chinese; setting = 80 mg single dose; endpoint = subjects with drug-related TEAEs; value = 50%
Structure (SMILES) = CC(C)C[C@H](NC(=O)[C@H](CCCCN)NC(=O)[C@H](CCCCN)NC(=O)[C@H](CCCNC(=N)N)NC(=O)[C@H](Cc1ccccc1)NC(=O)[C@H](CCCNC(=N)N)NC(=O)[C@H](CCCCN)NC(=O)[C@H](Cc1ccccc1)NC(=O)[C@H](CCCNC(=N)N)NC(=O)CN)C(=O)NCCCC[C@H](NC(=O)[C@H](CC(C)C)NC(=O)[C@H](CCCCN)NC(=O)[C@H](CCCCN)NC(=O)[C@H](CCCNC(=N)N)NC(=O)[C@H](Cc1ccccc1)NC(=O)[C@H](CCCNC(=N)N)NC(=O)[C@H](CCCCN)NC(=O)[C@H](Cc1ccccc1)NC(=O)[C@H](CCCNC(=N)N)NC(=O)CN)C(=O)NCCCC[C@H](NC(=O)[C@H](CCCCNC(=O)[C@H](CC(C)C)NC(=O)[C@H](CCCCN)NC(=O)[C@H](CCCCN)NC(=O)[C@H](CCCNC(=N)N)NC(=O)[C@H](Cc1ccccc1)NC(=O)[C@H](CCCNC(=N)N)NC(=O)[C@H](CCCCN)NC(=O)[C@H](Cc1ccccc1)NC(=O)[C@H](CCCNC(=N)N)NC(=O)CN)NC(=O)[C@H](CC(C)C)NC(=O)[C@H](CCCCN)NC(=O)[C@H](CCCCN)NC(=O)[C@H](CCCNC(=N)N)NC(=O)[C@H](Cc1ccccc1)NC(=O)[C@H](CCCNC(=N)N)NC(=O)[C@H](CCCCN)NC(=O)[C@H](Cc1ccccc1)NC(=O)[C@H](CCCNC(=N)N)NC(=O)CN)C(=O)NCCC(=O)O; test system = human red blood cells; setting = 2 h, 37 °C; endpoint = hemolytic concentration; value = ~15 µM
Structure (SMILES) = CC(C)[C@@H]1NC(=O)CNC(=O)[C@H](CC(N)=O)NC(=O)[C@H](CCCNC(=N)N)NC(=O)[C@H](Cc2ccc(O)cc2)NC(=O)[C@H](C(C)C)NC(=O)[C@@H](NC(=O)[C@@H](NC(=O)[C@H](CC(N)=O)NC(=O)[C@H](Cc2c[nH]c3ccccc23)NC(=O)[C@H](C)NC(=O)[C@H](Cc2ccccc2)NC(=O)CN)C(C)C)CSSC[C@@H](C(=O)N[C@@H](Cc2cnc[nH]2)C(=O)N[C@@H](CCCNC(=N)N)C(=O)N[C@@H](CCCNC(=N)N)C(=O)N[C@@H](C)C(=O)N[C@@H](CC(N)=O)C(N)=O)NC(=O)[C@H](C(C)C)NC(=O)[C@H](CCCNC(=N)N)NC1=O; test system = ICR mouse, serum; setting = ip, 10 mg/kg, 3 d dosing, blood day 5; endpoint = total protein; value = 51.6 ± 0.98 g/L
Structure (SMILES) = CC(C)C[C@H]1C(=O)O[C@H](Cc2ccc(N3CCOCC3)cc2)C(=O)N(C)[C@@H](CC(C)C)C(=O)O[C@H](C)C(=O)N(C)[C@@H](CC(C)C)C(=O)O[C@H](Cc2ccc(N3CCOCC3)cc2)C(=O)N(C)[C@@H](CC(C)C)C(=O)O[C@H](C)C(=O)N1C; test system = HBSS; setting = 18 h, pH 7.4; endpoint = thermodynamic solubility; value = 0.501 µM (≈ 0.561 µg/mL)
Structure (SMILES) = Cn1cc(-c2nc(N[C@@H]3CCCC[C@@H]3N)c(F)c3c2C(=O)NC3)cn1; test = item: Mouth haemorrhage; test system = patients with relapsed or refractory AML; setting = oral, dose not given, all doses; endpoint = hemorrhagic adverse events; value = 7%
Structure (SMILES) = CC(C)(O)c1cc(Nc2cc(Oc3cn(C4CC4)nc3C3CCOCC3)ccn2)ccn1; test system = patients with advanced cancer, Japanese cohort; setting = oral, dose not given, treatment-related adverse events; endpoint = ALT increased, grade ≥3; value = 0%
Structure (SMILES) = Cn1ncc(-c2nc(N[C@H]3CC[C@H](N)CC3)ncc2Cl)c1CC1CC1; test = HPLC-MS/MS; test system = patients, plasma; setting = oral, 5 mg, day 1; endpoint = AUC; value = 0.233 µg·h/mL
Structure (SMILES) = CO[C@H]1C[C@@H]2CC[C@@H](C)[C@@](O)(O2)C(=O)C(=O)N2CCCC[C@H]2C(=O)O[C@H]([C@H](C)C[C@@H]2CC[C@@H](OC(=O)NCCOCCOCCOCCOCCOCCOCCOCCOCCC(=O)N3CCc4cc(Cn5nc(-c6ccc7oc(N)nc7c6)c6c(N)ncnc65)ccc4C3)[C@H](OC)C2)C[C@@H](O)[C@H](C)/C=C(\C)[C@@H](O)[C@@H](OC)C(=O)[C@H](C)C[C@H](C)/C=C/C=C/C=C/1C; test = phase 1 dose escalation, item: fatigue; test system = advanced solid tumour patients; setting = intravenous, 12 mg weekly, grade ≥3; endpoint = dose-reducing adverse events; value = 0%
Structure (SMILES) = CCc1ccc(CC/C=C/c2ccc3c(c2)C(=O)CC3)cc1; test system = Sprague-Dawley rat, female; setting = oral, 450 mg/kg/day, 14 days; endpoint = Phosphorus; value = 2.44 mM
Structure (SMILES) = O=S(=O)(Nc1ccccc1)c1ccc(NC(=S)Nc2ccccc2)cc1; test = item: ALT; test system = female mouse, blood; setting = oral, 20 mg/kg daily, 14 days; endpoint = serum enzyme activity; value = 67 U/L
Structure (SMILES) = COc1cc2c(Oc3ccc4[nH]c(C)cc4c3F)ccnc2cc1OCC1(N)CC1; test system = paediatric recurrent refractory sarcoma; setting = 12 mg; endpoint = grade 1 or 2 sinus bradycardia; value = 0%
Structure (SMILES) = C[C@@H]1NC(=O)[C@H](CCCCNC(=O)CO/N=C/C(=O)NCCCC[C@@H]2NC(=O)[C@@H](Cc3ccccc3)NC(=O)[C@H](CC(=O)O)NC(=O)CNC(=O)[C@H](CCCNC(=N)N)NC2=O)NC(=O)CNC(=O)[C@@H]2CCCN2C(=O)[C@H](CCCCNC(=O)CO/N=C/C(=O)NCCCC[C@@H]2NC(=O)[C@@H](Cc3ccccc3)NC(=O)[C@H](CC(=O)O)NC(=O)CNC(=O)[C@H](CCCNC(=N)N)NC2=O)NC(=O)[C@H](CCCCNC(=O)CCNC(=O)CCNC(=O)CCNC(=O)[C@H](CCCCN)NC(=O)[C@H](Cc2ccccc2)NC(=O)CNC(=O)CN2CCCNCCNCCCNCC2)NC(=O)[C@H](CCCCNC(=O)CO/N=C/C(=O)NCCCC[C@@H]2NC(=O)[C@@H](Cc3ccccc3)NC(=O)[C@H](CC(=O)O)NC(=O)CNC(=O)[C@H](CCCNC(=N)N)NC2=O)NC(=O)CNC(=O)[C@@H]2CCCN2C(=O)[C@H](CCCCNC(=O)CO/N=C/C(=O)NCCCC[C@@H]2NC(=O)[C@@H](Cc3ccccc3)NC(=O)[C@H](CC(=O)O)NC(=O)CNC(=O)[C@H](CCCNC(=N)N)NC2=O)NC1=O [copper-64 labelled]; test = PET imaging; test system = mouse, U-87 MG tumour xenograft, tumor; setting = intravenous, 24 h; endpoint = tissue uptake; value = 1.81 ± 0.29 %ID/g
Structure (SMILES) = C[C@]1(O)C[C@@](N)(c2ccc(-c3nc4n(c3-c3ccccc3)COc3ccncc3-4)cc2)C1; test system = human, advanced or metastatic solid tumours; setting = 28 mg intermittent, phase I dose escalation; endpoint = patients with Anemia TEAE; value = 0%
Structure (SMILES) = O=[N+]([O-])c1ccc2c(c1)S(=O)(=O)C=C2; test system = male C57BL/6 mice, blood; setting = intraperitoneal, 20 mg/kg, day 8, group average; endpoint = platelet distribution width; value = 14.8%
Structure (SMILES) = O.O.O.O.O.O.[Cl-].[Cl-].[Co+2]; test system = rat male, faeces; setting = oral, 10 mg/kg single, day 2; scale = reference: vehicle control subtracted; endpoint = cobalt in faeces; value = 3.91 µg/g
Structure (SMILES) = O=C1Nc2cc3[nH]nc(-c4ccncc4)c3cc2CN1Cc1ccccc1; test = CTCAE v4.03; test system = advanced solid tumour patients; setting = intravenous, 0.9 mg/kg, schedules 1/2; endpoint = patients with cough; value = 0%
Structure (SMILES) = CCc1nc(C(N)=O)c(Nc2ccc(N3CCC(N4CCN(C)CC4)CC3)c(OC)c2)nc1NC1CCOCC1; test system = patients, plasma; setting = oral, 120 mg once daily, cycle 1 day 15, median; endpoint = Cmin; value = 0.227 µg/mL
Structure (SMILES) = CCC[C@@](N)(CO)CCc1ccc(OCCCCCC(C)C)cc1; test system = dog, male hounds, plasma; setting = oral capsule, 15 mg/kg, geometric mean; endpoint = AUC(0-t); value = 16 µM·h
